# Experimental data from different studies.
# Every numbered part comes from another study and shows a few of its results, in no order. Positions count from the first letter of the parent shown.

# Study 1
# Target: Interferon regulatory factor 7, full length, phosphomimetic (IRF7, Homo sapiens, UniProt Q92985, residues 1-503, S471D/S472D/S475D/S476D/S477D/S483D/S484D/S487D)
# Chain of UniProt Q92985 (whole entry, unmodified, looked up): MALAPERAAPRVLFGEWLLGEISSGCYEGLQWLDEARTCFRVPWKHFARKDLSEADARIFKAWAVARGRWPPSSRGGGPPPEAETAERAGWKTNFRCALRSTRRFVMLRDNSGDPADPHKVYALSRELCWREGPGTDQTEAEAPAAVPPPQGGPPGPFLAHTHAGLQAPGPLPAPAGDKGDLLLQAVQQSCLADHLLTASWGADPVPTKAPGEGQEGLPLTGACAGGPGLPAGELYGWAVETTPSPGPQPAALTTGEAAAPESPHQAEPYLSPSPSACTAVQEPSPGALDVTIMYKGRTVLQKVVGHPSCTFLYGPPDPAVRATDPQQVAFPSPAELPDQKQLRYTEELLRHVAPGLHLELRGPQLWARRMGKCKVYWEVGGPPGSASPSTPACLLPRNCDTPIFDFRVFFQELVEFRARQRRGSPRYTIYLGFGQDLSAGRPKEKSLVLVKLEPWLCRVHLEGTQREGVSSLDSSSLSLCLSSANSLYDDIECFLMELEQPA
# Method: protein-binding microarray
# Molecule type: double-stranded DNA, one strand shown
# Medium: in vitro
# Concentration: 2200 nM top
# Setting: 60-bp whole probe
# Added: salmon DNA 0.4 mg/ml
# Baseline: random background probes
# Reading: higher = stronger binding
# Constant ends, left off below: GCCTAGCAC … GTCTTGATTCGCTTGACGCTGCTG
Sequence,fitted relative affinity
TTAGGTATCCTTCTCCTTTTGTGCTAG,1.44 z-score
TTATGTTTCCTACTGCTTTAGTGCTAG,2.61 z-score
TTTTATTTATAAATTATCTTGTGCTAG,0.11 z-score
GACGATTTCAGTTCCGCGACGTGCTAG,2.05 z-score
ATATACCTGTATATCTTCAGGTGCTAG,0.946 z-score
TTAGGACTGGGTCTCTGTTAGTGCTAG,-0.109 z-score
TCATGTAACTCCTATCCAACTGTGCTA,1.4 z-score
GACGGACTGGTGTTTCGGGACGTGCTA,0.546 z-score
TCCATTTTCTAAATTCCCTAGTGCTAG,3.52 z-score
TTTGGTTTCGGTTCCGGTTAGTGCTAG,12.9 z-score
GACGATATCGGGACTGGAGATGTGCTA,-0.294 z-score
TTAGGTCTGCTTCTCCTTTAGTGCTAG,0.985 z-score
GCCGATATCGGGTATCGAGACGTGCTA,0.422 z-score
TCACCTCTCACGCATCTGACTGTGCTA,1.55 z-score

# Study 2
# Substance: PhoQ, residues 284 288 289 292 302 303 SLANKL
# Method: Sort-seq
# Item: YFP reporter
# Medium: E. coli
# Setting: PhoQ-PhoP variant library
# Added: 10 µM Mg2+
# Baseline: high Mg2+ state
# Reading: higher = stronger signaling
target,fold induction
"PhoP, residues 12 14 15 18 19 TQALL (Escherichia coli, UniProt P23836)",17.2
"PhoP, residues 12 14 15 18 19 QYFSL (Escherichia coli, UniProt P23836)",3.59
"PhoP, residues 12 14 15 18 19 NYFRM (Escherichia coli, UniProt P23836)",2.09

# Study 3
# Target: CCNF, cyclin fold, Cln2 fusion (human)
# Method: yeast growth competition, sequencing
# Medium: yeast
# Setting: strong parent motif
# Baseline: not given
# Reading: higher = stronger binding
# Starting sequence: WEE1 docking peptide (human); HKTFRKLRLFDTP
Change,normalised enrichment score
HRTFRKLRLFDTP [K2R],3.2
HKTFRKLRLFDTE [P13E],1.45
HKTFRWLRLFDTP [K6W],2.81
HKTFRILRLFDTP [K6I],2.01
HKTFRKLRKFDTP [L9K],3.21
HKTFRKLRTFDTP [L9T],0.346
HKAFRKLRLFDTP [T3A],1.34
HKTFRKLRLFDTS [P13S],2.51
HKTFRSLRLFDTP [K6S],1.06
HKTFRKLRLFDTT [P13T],3.06
RKTFRKLRLFDTP [H1R],1.17
HKTMRKLRLFDTP [F4M],2.6
HKTFRKARLFDTP [L7A],0.737
HKTFRKLRIFDTP [L9I],0.967
HKTFRTLRLFDTP [K6T],0.963

# Study 4
# Target: Sal-like protein 4, full length isoform A (SALL4, Homo sapiens, UniProt Q9UJQ4, residues 1-1053)
# Chain of UniProt Q9UJQ4 (whole entry, looked up): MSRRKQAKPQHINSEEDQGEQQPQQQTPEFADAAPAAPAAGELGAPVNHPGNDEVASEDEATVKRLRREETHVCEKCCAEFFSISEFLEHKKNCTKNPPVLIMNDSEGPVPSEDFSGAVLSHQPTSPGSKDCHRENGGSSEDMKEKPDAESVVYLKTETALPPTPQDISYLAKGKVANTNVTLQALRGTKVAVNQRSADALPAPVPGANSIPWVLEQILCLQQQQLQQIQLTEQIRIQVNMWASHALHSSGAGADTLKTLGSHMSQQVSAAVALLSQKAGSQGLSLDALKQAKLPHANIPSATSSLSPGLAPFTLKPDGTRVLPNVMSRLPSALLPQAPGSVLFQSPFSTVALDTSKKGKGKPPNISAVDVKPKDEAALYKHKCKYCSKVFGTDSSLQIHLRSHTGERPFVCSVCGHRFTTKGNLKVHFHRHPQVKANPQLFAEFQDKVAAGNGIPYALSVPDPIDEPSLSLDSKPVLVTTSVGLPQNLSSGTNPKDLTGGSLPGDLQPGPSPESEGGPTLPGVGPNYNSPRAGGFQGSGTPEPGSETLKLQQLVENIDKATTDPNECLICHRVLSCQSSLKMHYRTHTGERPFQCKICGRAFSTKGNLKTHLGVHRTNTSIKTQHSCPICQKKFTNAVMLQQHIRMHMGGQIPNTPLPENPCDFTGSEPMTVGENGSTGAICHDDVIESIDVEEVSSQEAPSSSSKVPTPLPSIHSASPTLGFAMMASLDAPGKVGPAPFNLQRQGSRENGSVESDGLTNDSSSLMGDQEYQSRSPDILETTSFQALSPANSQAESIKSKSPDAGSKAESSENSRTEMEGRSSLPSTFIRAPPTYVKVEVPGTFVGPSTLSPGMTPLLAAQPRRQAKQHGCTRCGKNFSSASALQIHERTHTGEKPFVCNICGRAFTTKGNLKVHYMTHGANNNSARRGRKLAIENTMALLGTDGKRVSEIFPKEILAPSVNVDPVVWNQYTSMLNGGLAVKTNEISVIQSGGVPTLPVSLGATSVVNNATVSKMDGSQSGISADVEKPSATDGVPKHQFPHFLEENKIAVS
# Method: universal PBM
# Molecule type: double-stranded DNA, one strand shown
# Medium: in vitro
# Concentration: 600 nM
# Setting: 8-mer, flanks averaged, mean of replicates
# Reading: higher = stronger binding
Sequence,E-score
ATCCTTAC,0.115
CCAAGCAA,-0.115
CCCCGGAG,-0.403
ATACAGTG,0.164
ACCGCCAC,-0.148
GTTCGCTA,0.0489
CGTGTGCA,-0.134
AAGCCCTT,-0.121

# Some of these lines once more (study 1):
Sequence,fitted relative affinity
TTAGGACTGGGTCTCTGTTAGTGCTAG,-0.109 z-score
TCATGTAACTCCTATCCAACTGTGCTA,1.4 z-score
GACGGACTGGTGTTTCGGGACGTGCTA,0.546 z-score
